Measurements collected from several papers.
Parts stem from different laboratories: compare values within a part only. Substitutions count along the parent as printed.

Set 1
Target: CCND2, cyclin fold, Cln2 fusion (human)
Method: yeast growth competition, sequencing
Sample: yeast
Notes: weak parent motif
Baseline: not given
Reading: higher = stronger binding
Parent: PKMYT1 docking peptide (human); SFEPRNLLSLFED; partner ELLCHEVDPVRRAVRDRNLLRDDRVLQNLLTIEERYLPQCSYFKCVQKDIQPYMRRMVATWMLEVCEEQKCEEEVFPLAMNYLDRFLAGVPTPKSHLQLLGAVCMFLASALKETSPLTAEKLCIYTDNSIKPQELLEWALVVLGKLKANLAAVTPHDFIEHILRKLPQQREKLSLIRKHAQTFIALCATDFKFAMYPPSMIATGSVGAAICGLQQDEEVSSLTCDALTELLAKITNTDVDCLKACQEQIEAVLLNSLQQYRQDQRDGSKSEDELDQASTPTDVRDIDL
Under “normalised enrichment score”, `F2I` is recorded as -0.308.
For `F2W`, “normalised enrichment score” read 0.225.
`L10P`: “normalised enrichment score” -0.185.
`R5P`: “normalised enrichment score” 0.139.
For `N6F`, “normalised enrichment score” read 0.258.
`F11H` — result for “normalised enrichment score”: 0.0464.
For `L7D`, “normalised enrichment score” read 0.234.
For `P4Q`, “normalised enrichment score” read 0.381.
`S9I` — result for “normalised enrichment score”: -0.0401.
`E3N` — result for “normalised enrichment score”: 0.00156.
Under “normalised enrichment score”, `L7H` is recorded as 0.308.
Under “normalised enrichment score”, `F11N` is recorded as -0.0314.
Under “normalised enrichment score”, `E3R` is recorded as -0.578.
`L8G`: “normalised enrichment score” -0.14.
`L7I`: “normalised enrichment score” -0.0666.
`L8I` — result for “normalised enrichment score”: -0.0839.
`N6T`: “normalised enrichment score” -0.133.
For `E12P`, “normalised enrichment score” read 0.16.
`D13P`: “normalised enrichment score” 0.152.
For `E3H`, “normalised enrichment score” read 0.239.
`N6D` — result for “normalised enrichment score”: -0.0619.
Under “normalised enrichment score”, `S1E` is recorded as -0.0277.
Under “normalised enrichment score”, `D13K` is recorded as -0.163.
`L10H`: “normalised enrichment score” 0.163.
For `E12K`, “normalised enrichment score” read 0.107.

Set 2
Target: RING finger protein unkempt homolog, zinc fingers 1-6, GST-SBP tag (UNK, Homo sapiens, UniProt Q9C0B0, residues 30-357)
UniProt Q9C0B0, sequence (30-357, looked up): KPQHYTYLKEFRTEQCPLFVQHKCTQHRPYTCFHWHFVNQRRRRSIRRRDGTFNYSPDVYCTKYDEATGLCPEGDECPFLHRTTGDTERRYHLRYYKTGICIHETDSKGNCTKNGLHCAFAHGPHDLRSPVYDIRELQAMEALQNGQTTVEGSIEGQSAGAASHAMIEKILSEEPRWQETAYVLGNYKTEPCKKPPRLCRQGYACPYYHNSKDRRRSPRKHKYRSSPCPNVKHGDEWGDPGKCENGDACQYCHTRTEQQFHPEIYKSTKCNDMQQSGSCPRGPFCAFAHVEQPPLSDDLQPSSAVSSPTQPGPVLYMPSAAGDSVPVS
Method: RNA Bind-n-Seq
Molecule type: RNA
Sample: in vitro
Concentration: not given
Notes: RNA with constant flanks, human-mouse chimeric sites, ends assumed
Baseline: input RNA pool
Reading: higher = stronger binding
With `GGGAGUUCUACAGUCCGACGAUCGACUUUGGGACUGGUCCUCGUAAUGCAGCCUUCUAUAGCCCUCAUGGACAUAUAUUAGUAUUAGCUGGAUUUGGAAAUCUUCGAGGACAAAUGGAAGUAUGGGAUGUUAAAAACUACAAGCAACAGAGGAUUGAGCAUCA` the bound/input enrichment was 0.972 ratio.
`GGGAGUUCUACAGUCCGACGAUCCUCAGAGACGUGGCAUAUCAGUAUGUGAAAAAGGGGGCUCGUAUAUUUGUGGAAGGGAAAGUGGACUAUGGCGAGUACAUGGAUAAAAACAAUGUGAGGCGACAAGCAACAACAAUCAUACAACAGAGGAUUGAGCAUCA` has a bound/input enrichment of 0.312 ratio.
`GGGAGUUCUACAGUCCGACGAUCGAUCAUGAACCACCAUCAGAAAUGAAGAUGAGAUUACCCAAGACGAGCAAAACAGCUGCGCUACAGAAAAGUAAACUUAACCUUGCACCAAUUUCUCAUGAAGAUACAAGUUAAGAGAGCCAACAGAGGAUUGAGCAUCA` has a bound/input enrichment of 0.294 ratio.
With `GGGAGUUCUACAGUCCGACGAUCCCCCAAUACCAUUUGCAGGUCUGGAACUGCACUCUCUUUUUUAAAAAAUAUGCAUAUAUUUUAGGGCUGUAGAUUUAUUUUCCUGGUUUUGUUUUUCAUUGCUGACUUUUGAGCACAGAACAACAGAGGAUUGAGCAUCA` the bound/input enrichment was 1.02 ratio.
With `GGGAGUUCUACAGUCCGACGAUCCUUAAUGUUAAUAUUUUUGAAUAAAUGAAGCUAAAAUGUCUGCUUUUGGUACAACACGCAUUAAUAAAAGGUUAAGUUUUGUUUUCCCUCCACUGAAGUAAUACUUACUCAGAAAAAAACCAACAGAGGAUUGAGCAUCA` the bound/input enrichment was 0.114 ratio.
The bound/input enrichment of `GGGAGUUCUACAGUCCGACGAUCUAAGUUAUUUUGUACAGCUUUGUAAAUUCUUAACAUUUUUAUAUUGCCAUGUUUAUUUUUUUUAGAUAAUUUGGUUCAUUAAGUACAUAGCUAAGGUAAUGAACAUCGUAAUUAUAGAUUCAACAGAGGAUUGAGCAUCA` is reported as 1.98 ratio.
With `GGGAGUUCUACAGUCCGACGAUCUACUACUGAAUCUGUGAUAUUGGCAAUUAUUAUUAUGGACAGGGUCAUCCCAUGAAGCCUCAUAGAAUCCGGAUGACUCAUAACUUGCUGCUAAAUUAUGGUUUAUACCGAAAAAUGGAACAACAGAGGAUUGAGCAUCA` the bound/input enrichment was 0.236 ratio.
`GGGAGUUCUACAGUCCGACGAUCAAAGAGAAACUAAAGCAACUAAUAGAGGAAGAGGAUUGCAAAGAGAAUUUCAUAGAGAAACUAGGAUUUAUUAGCAAACAUGAGUUAUAUUCCAGAGGCAUCUCAGAACCCCAGCCAAACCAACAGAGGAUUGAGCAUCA` has a bound/input enrichment of 11 ratio.

Set 3
Target: Centromere-binding protein 1, full length, N-terminal tag (CBF1, Saccharomyces cerevisiae, UniProt P17106, residues 1-351)
UniProt P17106, sequence (whole entry, looked up): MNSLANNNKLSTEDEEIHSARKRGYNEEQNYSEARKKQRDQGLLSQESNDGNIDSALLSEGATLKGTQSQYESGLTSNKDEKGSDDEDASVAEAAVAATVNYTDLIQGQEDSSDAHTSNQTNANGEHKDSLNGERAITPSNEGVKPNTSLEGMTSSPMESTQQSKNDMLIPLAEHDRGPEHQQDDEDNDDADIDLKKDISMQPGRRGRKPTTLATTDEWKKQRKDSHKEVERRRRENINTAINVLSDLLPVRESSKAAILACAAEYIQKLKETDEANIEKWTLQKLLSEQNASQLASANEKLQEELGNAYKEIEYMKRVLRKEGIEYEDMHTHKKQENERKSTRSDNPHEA
Method: protein-binding microarray
Molecule type: double-stranded DNA, one strand shown
Sample: in vitro
Concentration: 0.8 µM
Notes: whole 60-bp probe, no competitor
Reading: higher = stronger binding
For `CTAACTCTGTAATAGCTGACGATTCTTCAGTGATTCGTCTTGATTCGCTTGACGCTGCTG`, the fluorescence intensity was 468 a.u.
The fluorescence intensity of `CTAATGCATATTGAAAACATCACGGGAACGAGATTCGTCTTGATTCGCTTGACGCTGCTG` is reported as 1830 a.u.
`GAATGTCTGGTACATAAGGTGAGTCATATTTACTAGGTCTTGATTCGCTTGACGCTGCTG` gave a fluorescence intensity of 552 a.u.
For `CTAGTTGCCGCACACGTGTTGGTGCACGTTAAGTTCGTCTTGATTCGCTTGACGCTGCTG`, the fluorescence intensity was 6640 a.u.
The fluorescence intensity of `CTATCTACGAACCATGTGATTATTAGCACTGTATTCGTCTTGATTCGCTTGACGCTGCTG` is reported as 2520 a.u.
For `GAAATATATTATGCTCACGTGATGACCACGTGATAGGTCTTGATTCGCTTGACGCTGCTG`, the fluorescence intensity was 28800 a.u.
`GAATTACATAGGCATCACGAAAAAAAGTCGCATTAGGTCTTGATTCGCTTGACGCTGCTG` has a fluorescence intensity of 585 a.u.
With `GAATGCAGTGATTATCACGTGATCCGAACTGTTTAGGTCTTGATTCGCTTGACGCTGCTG` the fluorescence intensity was 37800 a.u.
The fluorescence intensity of `GAAGGGTTTATGCAACACGCGATATATAAGCATTAGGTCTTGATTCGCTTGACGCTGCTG` is reported as 640 a.u.
For `GAACTAAACCGATATCACGCTAGTATTTATTTCTAGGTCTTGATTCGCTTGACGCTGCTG`, the fluorescence intensity was 654 a.u.
`GAATATACAAATATACACGTTCGGTCAATTGCATAGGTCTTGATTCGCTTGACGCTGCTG` gave a fluorescence intensity of 559 a.u.
`CTAACGGACACTTCTGATGTTTCAAAAGATATTTTCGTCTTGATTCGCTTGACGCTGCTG` gave a fluorescence intensity of 546 a.u.
`CTATTGAGAACTAGTCATCAGATATAATAGAAGTTCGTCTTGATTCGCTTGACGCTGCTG` has a fluorescence intensity of 528 a.u.
For `TGTACGAAGCTATTGACTATTTTTATAGTAGTTAGGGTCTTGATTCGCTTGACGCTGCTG`, the fluorescence intensity was 523 a.u.
With `GAACGCCGTCCTCATGATGTGTTAGTTATACGTTAGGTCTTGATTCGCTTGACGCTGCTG` the fluorescence intensity was 551 a.u.
`CTATCTGACACGCACGTGATGACCACGTAATCGTTCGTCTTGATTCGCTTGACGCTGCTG` has a fluorescence intensity of 9070 a.u.
For `GAAAAAGTTGCTTATTTCATGACGGACAGATTTTAGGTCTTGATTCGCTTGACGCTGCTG`, the fluorescence intensity was 525 a.u.
`CTAAAATGGCGTGGAAATGTGATCAAAGGTAATTTCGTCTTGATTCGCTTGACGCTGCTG` has a fluorescence intensity of 596 a.u.
For `CTATGACTCTTCTACAACGTGAATGCCTTTGATTTCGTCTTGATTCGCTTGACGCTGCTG`, the fluorescence intensity was 646 a.u.
With `CTATGCCCTTATTCGCACGTGCCATAACACCTGTTCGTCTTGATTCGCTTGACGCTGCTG` the fluorescence intensity was 10300 a.u.
`CTAGTCATTCTTTAACACGTATACTTTTGTAACTTCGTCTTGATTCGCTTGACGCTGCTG` gave a fluorescence intensity of 564 a.u.

Set 4
Target: Fragile X messenger ribonucleoprotein 1, C-terminal low-complexity region (Fmr1, Mus musculus, UniProt P35922)
Method: RNA Bind-n-Seq
Molecule type: RNA
Sample: in vitro
Concentration: 200 nM
Notes: whole 134-nt RNA, ends assumed
With: 150 mM LiCl
Baseline: input library
Reading: higher = stronger binding
Library: 7-deaza-guanosine replaces G
For `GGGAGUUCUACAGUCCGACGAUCGCGGGAAGUAAAAACAAAUGGAAAUGCUUCGGAUAGUGGCAGGGGUGGGGGUUGCUAAGGAAAGGGUGGGAUGGGAGUGGGUAAAGAGUUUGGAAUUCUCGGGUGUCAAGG`, the log2 enrichment was 1.75.
For `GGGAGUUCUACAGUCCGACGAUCAGUCCUGUGCUACACAUCGUAUGUACCGAAUCGGUUUUUUUGGAAAAAAAGGUUUGGAAAGUAUUAUGUUACGCCGUUCGGAUCUGCACUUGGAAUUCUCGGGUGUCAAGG`, the log2 enrichment was -3.89.
For `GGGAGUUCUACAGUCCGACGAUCUCCUGUGCUACACAUCGUAUGUACCGAAUCGGGUUUUUGGGAAAAAGGGUUUUUUUGGGAAAGUAUUAUGUUACGCCGUUCGGAUCUGCAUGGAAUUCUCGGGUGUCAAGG`, the log2 enrichment was -1.83.
For `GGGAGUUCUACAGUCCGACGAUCCUGUGCUACACAUCGUAUGUACCGAAUCGGGGAAAAAAAGGAAAAAAAGGGAAAAAAAGGGAAAGUAUUAUGUUACGCCGUUCGGAUCUGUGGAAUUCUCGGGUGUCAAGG`, the log2 enrichment was -0.174.
`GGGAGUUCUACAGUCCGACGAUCGUCCUGUGCUACACAUCGUAUGUACCGAAUCGGGGAAAGGGGAAAAAGGGGAAAGGGGAAAGUAUUAUGUUACGCCGUUCGGAUCUGCACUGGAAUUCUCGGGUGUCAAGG` has a log2 enrichment of 1.18.
With `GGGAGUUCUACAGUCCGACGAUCUCAAGUCCUGUGCUACACAUCGUAUGUACCGAAUCGGGGUGGGGAGGGGUGGGGAAAGUAUUAUGUUACGCCGUUCGGAUCUGCACUUCCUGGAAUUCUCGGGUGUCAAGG` the log2 enrichment was -0.566.
`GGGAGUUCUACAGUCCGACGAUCUGCUGUGUCACCGGGAACGCAAAGGCUGGGAAGAAGGCCCUUCUCAAAAUGGACUGGUGUUGCAGGGUGAGAAGCUGCCCCCUGACUUCAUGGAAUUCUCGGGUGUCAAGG` has a log2 enrichment of -0.26.
`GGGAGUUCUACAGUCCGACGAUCCUCAAGUCCUGUGCUACACAUCGUAUGUACCGAAUCGGGGUGGGGUGGGGUGGAAAGUAUUAUGUUACGCCGUUCGGAUCUGCACUUCCAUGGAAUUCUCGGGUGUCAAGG` gave a log2 enrichment of -1.09.
